Experimental data gathered from unrelated publications.
± marks the error that the study gave.

SMILES	test	system	conditions	tissue uptake
Cc1cc(C)n(CCN(CCN)CCCCCCNC(=O)[C@@H](N)Cc2c[nH]cn2)n1.[99Tc+].[C-]#[O+].[C-]#[O+].[C-]#[O+]		BALB/c nude mice, A549 xenograft, bone	intravenous, 15 min	0.32 ± 0.03 %IA/g
CCCC[C@H](NC(=O)CCCCCCCNC(=O)CN1CCN(CC(=O)O)CCN(CC(=O)O)CC1)C(=O)N[C@H]1CC(=O)NCCCC[C@@H](C(N)=O)NC(=O)[C@H](Cc2c[nH]c3ccccc23)NC(=O)[C@H](CCCNC(=N)N)NC(=O)[C@@H](Cc2ccccc2)NC(=O)[C@H](Cc2c[nH]cn2)NC1=O [fluorine-18 labelled]		C57 mice B16-F10 melanoma, heart	intravenous, 0.37 MBq, 0.5 h	1.47 ± 0.21 %ID/g
CCCC[C@H](NC(=O)CNC(=O)CNC(=O)[C@H](CCCCNC(=O)[C@H](CC(N)=O)NC(=O)C(C)c1ccc(CC(C)C)cc1)NC(=O)CN1CCN(CC(=O)O)CCN(CC(=O)O)CCN(CC(=O)O)CC1)C(=O)N[C@H]1CC(=O)NCCCC[C@@H](C(N)=O)NC(=O)[C@H](Cc2c[nH]c3ccccc23)NC(=O)[C@H](CCCNC(=N)N)NC(=O)[C@@H](Cc2ccccc2)NC(=O)[C@H](Cc2c[nH]cn2)NC1=O (some centres unmarked) [lutetium-177 labelled]		C57 mice, tumour-bearing, blood	2 h	0.47 ± 0.1 %ID/g
CC(C)C[C@H](NC(=O)[C@@H](CCCCNC(=O)[C@@H](Cc1ccccc1)NC(=O)CCCCCCCNC(=O)CN1CCN(CC(=O)O)CCN(CC(=O)O)CCN(CC(=O)O)CC1)NC(=O)[C@H](Cc1ccc(O)cc1)NC(=O)[C@H](CO)NC(=O)[C@H](Cc1c[nH]c2ccccc12)NC(=O)[C@H](Cc1c[nH]cn1)NC(=O)[C@@H]1CCC(=O)N1)C(=O)N[C@@H](CCCNC(=N)N)C(=O)N1CCC[C@H]1C(=O)NCC(N)=O [indium-111 labelled]	biodistribution	male athymic nude mice, DU-145 prostate cancer xenograft, bone	intravenous, 0.037 MBq, 0.5 h post-injection	1.24 ± 0.24 %ID/g
O=C(NCC1OC2CCC=CCCC2O1)c1ccc(COCCOCCOCC[18F])cc1 (centres unmarked)		healthy female BALB/c nude mice, blood	intravenous, 7.4 MBq per mouse, 15 min	4.9 ± 0.2 %ID/g
COc1ccc(Nc2nc(Nc3ccc(OCCOCC[18F])cc3)ncc2Br)cc1		ICR mice, S180 tumour, stomach	intravenous, 370 kBq, 60 min	0.45 ± 0.03 %ID
O=C(NCC1OC2CCC=CCCC2O1)c1ccc([18F])nc1 (centres unmarked)		female BALB/c nude mice, LS174T tumour, liver	intravenous, 60 min, together with: unmodified CC49 24 h before	1.9 ± 0.5 %ID/g
CCCC[C@H](NC(=O)CNC(=O)CNC(=O)[C@H](CCCCNC(=O)[C@H](CC(=O)O)NC(=O)C(C)c1ccc(CC(C)C)cc1)NC(=O)CN1CCN(CC(=O)O)CCN(CC(=O)O)CCN(CC(=O)O)CC1)C(=O)N[C@H]1CC(=O)NCCCC[C@@H](C(N)=O)NC(=O)[C@H](Cc2c[nH]c3ccccc23)NC(=O)[C@H](CCCNC(=N)N)NC(=O)[C@@H](Cc2ccccc2)NC(=O)[C@H](Cc2c[nH]cn2)NC1=O (some centres unmarked) [lutetium-177 labelled]		C57 mice, tumour-bearing, lung	intravenous, 0.037 MBq, 24 h	0.38 ± 0.27 %ID/g

Excerpt of the above:
SMILES	test	system	conditions	tissue uptake
O=C(NCC1OC2CCC=CCCC2O1)c1ccc([18F])nc1 (centres unmarked)		female BALB/c nude mice, LS174T tumour, liver	intravenous, 60 min, together with: unmodified CC49 24 h before	1.9 ± 0.5 %ID/g
